# Experimental data collected from several papers.
# Each numbered part is a random draw from the data of one study; scales do not carry over between parts. Several values in a cell are separate wells, animals, samples, runs or records.
# Chain of UniProt P48729 (whole entry, looked up): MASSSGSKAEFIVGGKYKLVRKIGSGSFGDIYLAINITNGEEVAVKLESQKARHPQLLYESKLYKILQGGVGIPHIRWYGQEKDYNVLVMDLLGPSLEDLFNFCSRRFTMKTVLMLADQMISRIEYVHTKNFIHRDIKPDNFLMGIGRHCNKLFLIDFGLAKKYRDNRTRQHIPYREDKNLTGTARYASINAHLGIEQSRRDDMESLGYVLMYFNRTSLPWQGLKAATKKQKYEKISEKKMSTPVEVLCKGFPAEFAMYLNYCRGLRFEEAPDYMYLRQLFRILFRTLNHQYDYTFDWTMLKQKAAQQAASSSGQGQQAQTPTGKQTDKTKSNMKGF
# Chain of UniProt P00519 (whole entry, unmodified, looked up): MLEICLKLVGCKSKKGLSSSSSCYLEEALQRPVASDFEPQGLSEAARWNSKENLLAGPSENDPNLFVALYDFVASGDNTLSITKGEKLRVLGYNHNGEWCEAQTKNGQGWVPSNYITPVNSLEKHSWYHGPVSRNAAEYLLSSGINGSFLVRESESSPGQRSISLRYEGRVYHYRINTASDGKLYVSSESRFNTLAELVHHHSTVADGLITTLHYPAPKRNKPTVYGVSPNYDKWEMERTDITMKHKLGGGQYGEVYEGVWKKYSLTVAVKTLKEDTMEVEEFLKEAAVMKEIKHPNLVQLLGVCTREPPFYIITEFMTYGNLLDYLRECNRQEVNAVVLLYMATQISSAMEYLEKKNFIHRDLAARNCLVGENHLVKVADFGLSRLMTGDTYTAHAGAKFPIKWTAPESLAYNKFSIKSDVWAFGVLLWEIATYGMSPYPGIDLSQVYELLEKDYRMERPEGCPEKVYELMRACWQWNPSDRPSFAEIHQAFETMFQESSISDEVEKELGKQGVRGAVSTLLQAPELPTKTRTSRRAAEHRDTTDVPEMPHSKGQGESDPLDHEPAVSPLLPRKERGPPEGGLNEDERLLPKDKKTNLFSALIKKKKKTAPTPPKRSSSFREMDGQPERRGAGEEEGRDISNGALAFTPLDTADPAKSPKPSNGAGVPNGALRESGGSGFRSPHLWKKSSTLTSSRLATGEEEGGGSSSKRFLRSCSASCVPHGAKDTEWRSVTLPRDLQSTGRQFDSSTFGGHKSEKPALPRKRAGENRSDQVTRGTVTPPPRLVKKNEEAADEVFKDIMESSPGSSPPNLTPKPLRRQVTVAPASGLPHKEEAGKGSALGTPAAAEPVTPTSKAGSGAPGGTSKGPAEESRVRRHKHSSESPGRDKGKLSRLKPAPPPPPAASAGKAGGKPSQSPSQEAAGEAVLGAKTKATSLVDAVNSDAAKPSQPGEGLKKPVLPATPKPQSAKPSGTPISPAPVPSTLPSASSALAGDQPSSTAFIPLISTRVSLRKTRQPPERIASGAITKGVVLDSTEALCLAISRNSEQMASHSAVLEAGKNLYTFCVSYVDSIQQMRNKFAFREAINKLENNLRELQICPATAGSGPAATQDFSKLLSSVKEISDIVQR
# Chain of UniProt P51957 (whole entry, looked up): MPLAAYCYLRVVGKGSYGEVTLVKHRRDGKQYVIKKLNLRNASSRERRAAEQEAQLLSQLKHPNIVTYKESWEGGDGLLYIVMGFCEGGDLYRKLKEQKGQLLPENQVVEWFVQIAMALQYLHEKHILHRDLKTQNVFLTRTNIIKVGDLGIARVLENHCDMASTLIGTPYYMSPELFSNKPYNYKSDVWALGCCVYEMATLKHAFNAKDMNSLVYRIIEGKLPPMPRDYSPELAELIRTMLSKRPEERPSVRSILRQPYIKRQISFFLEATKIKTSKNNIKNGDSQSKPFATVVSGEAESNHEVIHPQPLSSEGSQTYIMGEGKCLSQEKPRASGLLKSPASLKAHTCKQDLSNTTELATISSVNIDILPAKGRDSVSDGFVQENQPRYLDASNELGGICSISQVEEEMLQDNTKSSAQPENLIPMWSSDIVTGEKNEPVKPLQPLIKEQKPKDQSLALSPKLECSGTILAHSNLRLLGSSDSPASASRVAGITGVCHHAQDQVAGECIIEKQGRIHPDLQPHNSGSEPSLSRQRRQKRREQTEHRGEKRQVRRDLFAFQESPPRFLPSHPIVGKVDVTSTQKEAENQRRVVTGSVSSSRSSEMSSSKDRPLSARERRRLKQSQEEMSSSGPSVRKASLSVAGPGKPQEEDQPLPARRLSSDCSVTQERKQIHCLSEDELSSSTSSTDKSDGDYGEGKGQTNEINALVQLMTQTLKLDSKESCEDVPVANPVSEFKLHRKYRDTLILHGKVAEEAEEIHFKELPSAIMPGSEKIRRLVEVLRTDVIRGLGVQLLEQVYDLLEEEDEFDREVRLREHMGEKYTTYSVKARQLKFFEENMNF
# Chain of UniProt Q8TDX7 (whole entry, looked up): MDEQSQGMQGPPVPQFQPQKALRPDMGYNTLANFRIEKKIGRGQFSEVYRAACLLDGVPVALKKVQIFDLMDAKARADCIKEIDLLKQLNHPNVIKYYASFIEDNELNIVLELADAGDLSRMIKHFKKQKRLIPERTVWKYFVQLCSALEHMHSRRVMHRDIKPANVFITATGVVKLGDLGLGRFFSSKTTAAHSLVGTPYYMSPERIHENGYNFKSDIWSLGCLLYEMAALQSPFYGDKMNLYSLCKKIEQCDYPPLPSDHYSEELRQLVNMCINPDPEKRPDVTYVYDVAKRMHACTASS
# Chain of UniProt O75582 (whole entry, looked up): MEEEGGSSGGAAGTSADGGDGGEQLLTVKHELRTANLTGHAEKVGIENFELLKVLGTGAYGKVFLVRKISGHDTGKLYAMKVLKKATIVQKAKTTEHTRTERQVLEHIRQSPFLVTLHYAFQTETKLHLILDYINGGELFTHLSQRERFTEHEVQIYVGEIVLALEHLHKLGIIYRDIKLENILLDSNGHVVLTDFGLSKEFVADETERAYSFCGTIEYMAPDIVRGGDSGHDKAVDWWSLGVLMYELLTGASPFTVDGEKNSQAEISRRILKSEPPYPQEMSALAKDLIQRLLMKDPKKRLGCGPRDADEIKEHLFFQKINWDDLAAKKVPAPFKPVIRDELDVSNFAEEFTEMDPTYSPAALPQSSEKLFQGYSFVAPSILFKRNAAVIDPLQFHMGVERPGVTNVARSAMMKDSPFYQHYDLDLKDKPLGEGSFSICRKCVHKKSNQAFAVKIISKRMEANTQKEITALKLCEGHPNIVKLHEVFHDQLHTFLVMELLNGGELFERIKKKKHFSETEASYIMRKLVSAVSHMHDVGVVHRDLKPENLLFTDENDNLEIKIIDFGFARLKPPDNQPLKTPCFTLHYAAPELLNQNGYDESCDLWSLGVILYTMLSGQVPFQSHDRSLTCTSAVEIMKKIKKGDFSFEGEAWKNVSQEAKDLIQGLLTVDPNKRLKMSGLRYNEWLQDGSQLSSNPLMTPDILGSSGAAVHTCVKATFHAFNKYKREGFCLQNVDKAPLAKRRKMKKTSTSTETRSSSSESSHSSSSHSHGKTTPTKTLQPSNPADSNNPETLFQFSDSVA
# Chain of UniProt Q9H3Y6 (whole entry, looked up): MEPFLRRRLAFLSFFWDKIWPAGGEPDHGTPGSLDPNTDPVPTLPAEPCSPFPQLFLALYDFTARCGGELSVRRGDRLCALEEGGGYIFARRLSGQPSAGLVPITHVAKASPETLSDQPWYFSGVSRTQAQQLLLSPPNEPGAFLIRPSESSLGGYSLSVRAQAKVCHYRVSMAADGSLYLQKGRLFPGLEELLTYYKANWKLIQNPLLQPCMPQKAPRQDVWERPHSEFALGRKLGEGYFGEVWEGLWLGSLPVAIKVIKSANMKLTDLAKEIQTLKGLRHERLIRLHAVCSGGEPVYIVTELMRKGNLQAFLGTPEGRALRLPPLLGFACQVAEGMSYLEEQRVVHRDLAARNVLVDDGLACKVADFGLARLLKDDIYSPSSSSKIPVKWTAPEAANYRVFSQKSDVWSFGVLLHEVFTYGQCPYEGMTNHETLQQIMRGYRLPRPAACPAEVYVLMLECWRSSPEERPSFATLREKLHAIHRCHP

# Set 1 — tested at: 1 µM
# Compound: CN1CCN(C(=O)c2ccc(NC(=O)Nc3ccc(N(C)c4ccnc(Nc5ccc(CS(C)(=O)=O)cc5)n4)cc3)cc2)CC1
target,method,baseline,remaining binding
"CSNK1A1 (Homo sapiens, UniProt P48729)",competitive binding panel,vehicle,85%
"ABL1 (Homo sapiens, UniProt P00519, F317L)","competitive binding, scanMAX",,51%
"FGFR1 (Homo sapiens, UniProt P11362)",competitive binding panel,vehicle,100%
"NEK4 (Homo sapiens, UniProt P51957)",competitive binding panel,vehicle,85%
"SRMS (Homo sapiens, UniProt Q9H3Y6)",competitive binding panel,vehicle,77%

# Set 2 — effect on: ligand displacement; tested at: 10 µM
# Target: Alpha-1D adrenergic receptor (ADRA1D, Homo sapiens, UniProt P25100)
# Chain of UniProt P25100 (whole entry, looked up): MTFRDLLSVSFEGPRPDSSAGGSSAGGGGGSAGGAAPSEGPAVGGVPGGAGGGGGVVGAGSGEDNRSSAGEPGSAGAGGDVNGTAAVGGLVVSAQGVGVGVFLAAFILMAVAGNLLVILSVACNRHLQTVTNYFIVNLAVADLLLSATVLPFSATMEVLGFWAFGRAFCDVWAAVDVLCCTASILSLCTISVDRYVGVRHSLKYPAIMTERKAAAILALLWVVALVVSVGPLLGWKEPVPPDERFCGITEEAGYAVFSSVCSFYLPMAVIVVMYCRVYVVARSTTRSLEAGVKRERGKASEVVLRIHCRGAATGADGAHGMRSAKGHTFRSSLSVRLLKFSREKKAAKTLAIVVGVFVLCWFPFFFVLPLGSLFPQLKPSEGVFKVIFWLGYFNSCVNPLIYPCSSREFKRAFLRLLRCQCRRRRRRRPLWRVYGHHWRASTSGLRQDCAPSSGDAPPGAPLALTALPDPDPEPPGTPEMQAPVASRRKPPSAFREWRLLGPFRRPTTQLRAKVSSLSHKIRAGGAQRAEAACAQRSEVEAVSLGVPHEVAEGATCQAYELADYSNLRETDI
SMILES,inhibition [%]
CNC(=O)Nc1ccc2c(c1)CC[C@]21OC(=O)N(CC(=O)N(Cc2ccc(F)cc2)[C@@H](C)C(F)(F)F)C1=O,-1.58
CO[C@H]1CC[C@H](CNc2ccc(S(=O)(=O)NC(=O)c3ccc(N4CCN(CC5=C(c6ccc(Cl)cc6)CC(C)(C)CC5)CC4)cc3Oc3cnc4[nH]ccc4c3)cc2[N+](=O)[O-])CC1,-9.01
CC(=O)Nc1ncc(CN2CCC[C@H](Cc3cc(C)nc(C)c3)C2)s1,8.3
CN(C)CC#Cc1ccc(OCCCc2sc(N3CCc4cccc(C(=O)Nc5nc6ccccc6s5)c4C3)nc2C(=O)O)c(F)c1,1.52
O=c1nc(-c2ccccn2)sc2ccccc12,-17.3
CC[C@H](CC(=O)O)n1c(=O)c2ncccc2n(Cc2cn(C)c3cc(C)cc(C)c23)c1=O,12.1
CN1CCN(c2cnc3c(C4CCN(C(=O)c5ccc(OC(F)(F)F)cc5N)CC4)ncnc3c2)CC1,-10.3
C[C@H](c1ccnc(Nc2nc3ccc(-c4cc(N(C)C)ncn4)cc3[nH]2)c1)N1CCN(C(=O)CC(F)(F)F)CC1,20.2
COc1cc(C(=O)O)ncc1C#Cc1ccccc1NS(=O)(=O)c1cccc2c(N(C)C)ccnc12,1.48
CS(=O)(=O)N1CCCC(NC(=O)[C@H](CCC2CCCCC2)NC(=O)c2ccc(CNC(=O)c3cnc4ccccn34)cc2)C1 (some centres unmarked),6.47
C[C@@H](c1cccc(C#N)c1)n1cc(Cl)cc(C(N)=O)c1=N,60.5
Cc1cc(Nc2nccc(C)n2)cc(-c2cnc([C@@]3(O)CC[C@H](C(=O)O)C(C)(C)C3)s2)c1,-4.92
CCc1ccccc1C(=O)Nc1n[nH]c2c(C)c(F)c(C3C(C#N)=C(C)N(C)C(C)=C3C#N)cc12,2.75
NS(=O)(=O)c1cc(NC(=O)Cc2ccccc2)ccc1Oc1cccc(Cl)c1,2.32
c1ccc(C2CCN(c3cnc4c(N5CCOCC5)nccn34)CC2)cc1,10.7
O=C(Nc1ccc(Oc2ccc(F)cc2)cc1)N1CCc2ncccc2[C@H]1c1ccc(F)cc1,34
O=C1NC(c2ccccn2)Sc2ccccc21 (centres unmarked),-18.5
Cc1ccc(-c2cnc([C@@]3(O)CC[C@H](C(=O)O)C(C)(C)C3)s2)cc1Nc1cccc(C(F)(F)F)n1,-2.32
O=C(NS(=O)(=O)c1ccc(NCC2CCOCC2)c([N+](=O)[O-])c1)c1ccc(N2CCN(Cc3ccc(C(F)(F)F)cc3-c3ccc(Cl)cc3)CC2)cc1Oc1cnc2[nH]ccc2c1,-26.4
Nc1cnc(N2CCc3cc(S(=O)(=O)Nc4c(F)cc(Cl)cc4F)cc(N4CCCC4=O)c32)nc1,-2.31
Cc1c(NC(=O)c2cc(C(N)=O)nc3cc(F)ccc23)c(C(F)(F)F)nn1Cc1ccc(C#N)cc1,7.36
Cc1noc([C@H]2C[C@@H](c3ccc(C(F)(F)F)cc3)CN(C(=O)N3CCS(=O)(=O)C3)C2)n1,-1.84
COc1cccc(NC(=O)c2nc3scc(CN(C)Cc4ccccc4)c3c(=O)[nH]2)c1,12.6
CCC(F)(F)c1cc(N2CCC(S(C)(=O)=O)CC2)nc2sc(C(N)=O)c(N)c12,36.7
CN(C)C(=O)c1sc2nc(N3CCC(S(C)(=O)=O)CC3)cc(C(F)(F)F)c2c1N,7.27

# Set 3 — cell line: HaCaT; tested at: 100 µM; time: 36 h
SMILES,viability [%]
CCCc1nc(C)c2c(=O)[nH]c(-c3cc(S(=O)(=O)N4CCN(CC)CC4)ccc3OCC)nn12,25.2
C[n+]1cc2c3c(ccc2c2ccc4cc5c(cc4c21)OCO5)OCO3,4.46
Cc1c(O)cccc1C(=O)N[C@@H](CSc1ccccc1)[C@H](O)CN1C[C@H]2CCCC[C@H]2C[C@H]1C(=O)NC(C)(C)C,13.1
O=C(c1ccccc1)c1ccc2n1CCC2C(=O)O (centres unmarked),8.07
COc1cc(C(=O)NS(=O)(=O)c2ccccc2C)ccc1Cc1cn(C)c2ccc(NC(=O)OC3CCCC3)cc12,44.3

# Set 4 — cell line: mouse MPNST tumor cells; method: high-content nuclear imaging; item: cell number; tested at: 10 µM; time: 12 h; setting: mean of 2 replicates; baseline: plate mean; reading: higher = more cells
Compound,nuclei count
CCCCOc1cc(C(=O)OCCN(CC)CC)ccc1N,2.04 z-score
CC(C)(Sc1cc(C(C)(C)C)c(O)c(C(C)(C)C)c1)Sc1cc(C(C)(C)C)c(O)c(C(C)(C)C)c1,0.161 z-score and 0.898 z-score
O=C1C(=O)c2ccccc2C(O)=C1C1CCC(c2ccc(Cl)cc2)CC1 (centres unmarked),0.28 z-score and -0.154 z-score
CCc1cccc(N(C)C(=N)Nc2cccc3ccccc23)c1,4.81 z-score
C1=Cc2ccccc2C(=C2CCN(CCCCc3nn[nH]n3)CC2)c2ccccc21,1.17 z-score

# Set 5 — effect on: enzyme activity; action: inhibitor; tested at: 10 µM
# Target: Calcium/calmodulin-dependent protein kinase type II subunit alpha (CAMK2A, Homo sapiens, UniProt Q9UQM7)
# Chain of UniProt Q9UQM7 (whole entry, looked up): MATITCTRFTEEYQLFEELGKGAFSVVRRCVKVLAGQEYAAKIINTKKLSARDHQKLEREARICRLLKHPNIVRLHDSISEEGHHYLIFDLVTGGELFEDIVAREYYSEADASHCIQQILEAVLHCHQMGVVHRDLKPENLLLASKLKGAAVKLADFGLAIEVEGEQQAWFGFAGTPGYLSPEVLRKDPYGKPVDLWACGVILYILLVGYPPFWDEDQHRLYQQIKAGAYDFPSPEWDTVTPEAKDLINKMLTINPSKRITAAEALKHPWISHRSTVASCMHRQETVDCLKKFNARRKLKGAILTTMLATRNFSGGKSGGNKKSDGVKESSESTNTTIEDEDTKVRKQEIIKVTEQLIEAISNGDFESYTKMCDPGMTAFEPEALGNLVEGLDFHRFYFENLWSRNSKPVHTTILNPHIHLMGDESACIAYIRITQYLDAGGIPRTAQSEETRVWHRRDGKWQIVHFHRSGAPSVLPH
SMILES,inhibition
COc1c2ccoc2c(OCC(O)C(C)(C)O)c2oc(=O)ccc12 (racemic),27%
Oc1cc(O)c2c(c1)O[C@H](c1cc(O)c(O)c(O)c1)[C@@H](O)C2,-35%
CCCCC[C@](C)(O)/C=C/[C@@H]1[C@@H](C/C=C\CCCC(=O)O)[C@@H](O)C[C@H]1O,1%

# Set 6 — action: inhibitor; tested at: 1 µM
# Structure (SMILES): CC#CC(=O)N1CCC[C@H]1c1nc(-c2ccc(C(=O)Nc3ccccn3)cc2)c2c(N)nccn12
target,effect on,inhibition [%]
"CDK16 (Homo sapiens, UniProt Q00536)",enzyme activity,1
"NEK7 (Homo sapiens, UniProt Q8TDX7)",enzyme activity,0
"Ribosomal protein S6 kinase alpha-5, C-terminal kinase domain (RPS6KA5, Homo sapiens, UniProt O75582)",,0
"STK10 (Homo sapiens, UniProt O94804)",enzyme activity,18
"RIOK1 (Homo sapiens, UniProt Q9BRS2)",enzyme activity,76

# Set 7 — host: mouse; sample: microsomes or S9; tested at: 2 µM; time: 0.5 h
SMILES,remaining compound [%]
CCN1CCCC1CNC(=O)c1n[nH]c2c1CCC2 (centres unmarked),76.1
CSc1ccc(C2c3cccn3-c3sc4c(c3CN2C(=O)NCc2ccc(F)cc2)CCCC4)cc1 (centres unmarked),30.9
O=S(=O)(CCc1ccccc1)NCCc1csc2nc(-c3ccccc3F)nn12,4.71
Nc1nc(-c2ccc(F)cc2)nc2oc(-c3ccccc3)nc12,23.4
Cc1noc(C)c1Cc1c(C(=O)N2CCC(C3CCNC3)CC2)noc1C (centres unmarked),96.3

# A few entries again (set 7):
SMILES,remaining compound [%]
CCN1CCCC1CNC(=O)c1n[nH]c2c1CCC2 (centres unmarked),76.1
CSc1ccc(C2c3cccn3-c3sc4c(c3CN2C(=O)NCc2ccc(F)cc2)CCCC4)cc1 (centres unmarked),30.9
O=S(=O)(CCc1ccccc1)NCCc1csc2nc(-c3ccccc3F)nn12,4.71
Nc1nc(-c2ccc(F)cc2)nc2oc(-c3ccccc3)nc12,23.4
Cc1noc(C)c1Cc1c(C(=O)N2CCC(C3CCNC3)CC2)noc1C (centres unmarked),96.3
